Published values of several laboratories.
A part holds a random share of what one study measured. Positions count from the first letter of the parent shown.

Study 1
Target: ABI1, truncated, D143A, DHFR fusion (Arabidopsis thaliana)
Method: DHFR PCA, deep sequencing
Matrix: yeast
Notes: methotrexate growth selection, single substitutions
Added: (+)-ABA 0.0091 µM
Relative to: wild-type fitted maximum
Direction: higher = stronger binding
Measurement: relative binding score
Starting sequence: PYL1, truncated, DHFR fusion (Arabidopsis thaliana); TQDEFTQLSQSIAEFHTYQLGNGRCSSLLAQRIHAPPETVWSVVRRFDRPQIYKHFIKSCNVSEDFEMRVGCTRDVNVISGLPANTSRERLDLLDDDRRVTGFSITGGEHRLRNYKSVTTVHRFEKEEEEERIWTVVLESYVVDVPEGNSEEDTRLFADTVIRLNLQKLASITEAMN; partner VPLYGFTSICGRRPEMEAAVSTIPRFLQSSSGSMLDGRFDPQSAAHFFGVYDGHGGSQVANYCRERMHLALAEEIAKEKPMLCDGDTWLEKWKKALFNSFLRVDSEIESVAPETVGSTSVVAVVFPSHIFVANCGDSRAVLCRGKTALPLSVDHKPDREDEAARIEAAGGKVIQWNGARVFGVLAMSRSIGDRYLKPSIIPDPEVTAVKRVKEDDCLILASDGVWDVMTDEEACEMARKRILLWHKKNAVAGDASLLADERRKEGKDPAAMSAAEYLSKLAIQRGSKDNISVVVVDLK
G81V: 6.73%
Y18K: -3.01%
K54F: 3.66%
H34T: 5.16%
G81E: 7.83%
R45I: -5.17%
E67N: 8.06%
S104A: -1.52%
I105P: -0.553%
R49G: -0.203%
E89I: 35.5%
D92T: 1.47%
F15D: -3.64%
F157G: -3.08%

Study 2
Target: Interferon regulatory factor 7, full length, phosphomimetic (IRF7, Homo sapiens, UniProt Q92985, residues 1-503, S101K/S471D/S472D/S475D/S476D/S477D/S483D/S484D/S487D)
UniProt Q92985, sequence (whole entry, unmodified, looked up): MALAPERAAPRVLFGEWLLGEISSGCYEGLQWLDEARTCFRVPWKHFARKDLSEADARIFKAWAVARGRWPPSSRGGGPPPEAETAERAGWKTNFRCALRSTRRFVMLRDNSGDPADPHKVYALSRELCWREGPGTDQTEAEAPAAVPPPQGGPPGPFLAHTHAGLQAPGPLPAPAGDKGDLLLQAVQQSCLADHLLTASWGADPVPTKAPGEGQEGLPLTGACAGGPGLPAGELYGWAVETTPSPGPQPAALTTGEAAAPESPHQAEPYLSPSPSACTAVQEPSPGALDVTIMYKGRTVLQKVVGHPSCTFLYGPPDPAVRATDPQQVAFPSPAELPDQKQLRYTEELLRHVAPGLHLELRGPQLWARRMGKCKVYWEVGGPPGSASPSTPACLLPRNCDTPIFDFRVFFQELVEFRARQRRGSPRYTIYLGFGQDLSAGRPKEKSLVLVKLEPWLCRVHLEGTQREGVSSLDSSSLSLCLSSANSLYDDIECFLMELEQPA
Method: protein-binding microarray
Form: double-stranded DNA, one strand shown
Matrix: in vitro
Tested at: 250 nM
Notes: 60-bp whole probe
Added: salmon DNA 0.4 mg/ml
Relative to: random background probes
Direction: higher = stronger binding
Measurement: log fluorescence
Constant ends, left off below: GCCTAGCAC … GTCTTGATTCGCTTGACGCTGCTG
GACGATATCGGGACTGGAGACGTGCTA: -0.53 z-score
TTAGATTCCAGTTTCGATTTGTGCTAG: 13.4 z-score
AGCAAGCCCCTTCCTTTCGGGTGCTAG: -0.744 z-score
GACGATCGCAGACTGGAGACGTGCTAG: -0.381 z-score
GGCAATTTGAGTCACTGTGTGTGCTAG: -0.974 z-score
TCAGGACTGCTTATCCTTTAGTGCTAG: -0.0211 z-score
TTAGATCTCCTTATCCTTTAGTGCTAG: 0.306 z-score
GACGATTTCTGTCTCGAGACGTGCTAG: 0.46 z-score
CTAGTTCTGCTTTGCCTTCAGTGCTAG: 3.62 z-score
TTAGATCTCAGTTTCAATTAGTGCTAG: 1.14 z-score
TTAGGTAACGACTATCGGTTAGTGCTA: 0.0513 z-score
TTTGATTTCAGTATCGATTAGTGCTAG: 1.41 z-score
CCAGTTCTGGGAAATATTTACGTGCTA: 0.0374 z-score
TTAGGACTGGACTATCGGTGAGTGCTA: -0.386 z-score
GACGGTATCCTTATCCAGACGTGCTAG: 0.0186 z-score
ATTGATAGTTTCACAATGCCGTGCTAG: 3.39 z-score
TTGATAATTTTTTTCTAAGTGTGCTAG: -0.0963 z-score

Study 3
Target: RNA binding protein fox-1 homolog 2, RRM domain, GST-SBP tag (RBFOX2, Homo sapiens, UniProt O43251-10, residues 100-194)
Method: RNA Bind-n-Seq
Form: RNA
Matrix: in vitro
Tested at: 365 nM
Notes: natural RNA segment, single round, ends assumed
Relative to: no-protein control
Direction: higher = stronger binding
Measurement: RBNS enrichment (R)
Constant ends, left off below: GGGAGUUCUACAGUCCGACGAUC … UGGAAUUCUCGGGUGCCAA
Residues (chain): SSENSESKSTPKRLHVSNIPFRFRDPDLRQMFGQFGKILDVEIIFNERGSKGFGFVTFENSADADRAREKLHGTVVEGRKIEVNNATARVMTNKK
AGAAUUCCCUAGAGACCUCUUGGGGGGCAACGGGCAGGCUGCAUCUCCCAGGAAACCAGGCAAGGGCCCGCCAUCCUAGUGAGGCAGGCCACCGCACCUUUCCACUUCUC: 0.374
AGGCCUCCCCUCGAAAGACACUGGGAGGUCAGCAUGUUCCACAGGUGUUCAGAGGGAGUCUGCUACAAACUAUCAGGGCAAAAUCUCACUGGAUUUCUCCACUGAAAACC: 2.85
AUUGACAAAUUAAGAUGUUAAUUUUUAUCGAUGUGAUUUGUAAUUAAGAUAUUUUGAUUUCAAUAACAAAAAUAAUACAAGAGUUUAAUCUGUGGAUUAUGUUCCUGAUC: 0.424
UUUACUGAUACCCCACAGUGGAAGGCAUUUCUUCCAGAUAUUUUCCAGAUACCUUGGCCGCCAAACUUCGUUUUCAAACACUGUGUUUUAUUGUGUAGACCUUGAAAACC: 0.378
CUUAGGAACAAGGAGUUGACAAGAGACUCCCCAGAGAGUCCUUGCGUCCACAAGGCCUCCUGAUACCAGCUUGGCUUCCCACAGCAAGCUCUAACUCUGAGAGCCUUUUG: 0.416
UAAUAUGCAGUAGUAUAGUGUGGAUCCAUUGCAAUUACUGGAAAAUUGGUUUAAAAUACUAUUUGCAGUGAGACCAUCUUUAGACUUGGAUAUUCUUGAUUCUUAGUUCA: 0.387
CAGGAAGCACUUGUCCCCCCUGGCACGGAAUCCAGAGGGUUCCUCGUCCUUUACCAGUGUCAACCCCAGAGGCUUUCUCUCUCCAGAACUGGCCAGCUAGAGACCGUUCU: 0.438
CUUAGACCACUUUGAGUGCAGUUCUUCUACUCCCAUGCCUUCCCGAUCCGUCUCGGCUACUGCAGAGCACUGACUGCUCUGAGGAGAGGGAAGAGGGUCUGCUGGGGGUU: 0.27

Study 4
Target: Histone acetyltransferase KAT6A, winged helix 1, GST fusion (KAT6A, Homo sapiens, UniProt Q92794, residues 1-85)
Method: protein binding microarray
Form: double-stranded DNA, one strand shown
Matrix: in vitro
Tested at: not given
Notes: 8-mer, flanks averaged, mean of 2 arrays, mostly near background
Relative to: not given
Direction: higher = stronger binding
Measurement: E-score
Construct (chain): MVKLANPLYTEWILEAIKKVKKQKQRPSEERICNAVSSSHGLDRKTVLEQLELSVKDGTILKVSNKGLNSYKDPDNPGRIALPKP
ACTGATCC: -0.182
GGTTCTAC: 0.017
GCGATTCA: 0.097
ATGCTGGC: -0.144
TAGTCTAA: -0.0853
AGTCAGGC: -0.0414
ACGTCTGG: -0.147
AGAGCCTC: 0.0321
CCTTTGTC: -0.172
ACTCCTAG: -0.0741
CGTAGGAC: 0.149
TAAGATGA: -0.19
AAACAGAG: -0.185
CCGGAAAG: 0.0638
CGACATCG: 0.0819
ACCCACGT: -0.283

Study 5
Target: Sal-like protein 4, full length isoform B (SALL4, Homo sapiens, UniProt Q9UJQ4-2, residues 1-616)
Method: universal PBM
Form: double-stranded DNA, one strand shown
Matrix: in vitro
Tested at: not given
Notes: 8-mer, flanks averaged, mean of replicates
Direction: higher = stronger binding
Measurement: E-score
Residues (chain): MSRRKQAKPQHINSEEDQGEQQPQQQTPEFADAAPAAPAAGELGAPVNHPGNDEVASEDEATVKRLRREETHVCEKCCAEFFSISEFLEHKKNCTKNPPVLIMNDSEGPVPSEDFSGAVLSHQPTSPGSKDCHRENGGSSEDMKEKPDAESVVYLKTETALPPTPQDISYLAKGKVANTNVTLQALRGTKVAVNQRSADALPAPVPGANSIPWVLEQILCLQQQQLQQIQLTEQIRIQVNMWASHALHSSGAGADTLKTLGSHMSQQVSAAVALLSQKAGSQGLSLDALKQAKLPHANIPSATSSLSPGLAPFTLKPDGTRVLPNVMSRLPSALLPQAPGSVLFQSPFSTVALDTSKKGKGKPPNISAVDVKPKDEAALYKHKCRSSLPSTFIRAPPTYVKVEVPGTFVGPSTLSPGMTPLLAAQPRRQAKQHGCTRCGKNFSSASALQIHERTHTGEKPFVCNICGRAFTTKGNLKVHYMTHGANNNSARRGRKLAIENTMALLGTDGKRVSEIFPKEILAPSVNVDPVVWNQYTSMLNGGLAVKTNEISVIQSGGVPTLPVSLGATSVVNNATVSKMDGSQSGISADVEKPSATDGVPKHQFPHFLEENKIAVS
ATGACTCG: 0.0718
CCTCGTAC: 0.0257
GTCGATAA: 0.0632
AGACCGCG: -0.188
AGAGCAGG: -0.0335
CAAGGGTA: -0.0585
CGAGAGGA: -0.084
TACAGGTA: 0.141
CAACGCCA: -0.128
GTCGCCTA: -0.204
ACGAGCCT: -0.148
ACTTTGCG: -0.14
AGACGATG: 0.00755
CTCGACCC: -0.266
CAATCTCA: 0.0418
CCGGATTA: -0.136
ATACGCCG: -0.187
CATACTAA: 0.198
AGCATTAT: 0.346
GCGGGTCA: -0.223
GGCCTGGA: -0.286
GAGATGTA: 0.165
AGCTCCGC: -0.319
AACTGCCG: -0.128
ATATGCGC: 0.174

A few entries again (study 1):
G81V: 6.73%
Y18K: -3.01%
K54F: 3.66%
H34T: 5.16%
G81E: 7.83%
R45I: -5.17%
E67N: 8.06%
S104A: -1.52%
I105P: -0.553%
R49G: -0.203%
E89I: 35.5%
D92T: 1.47%
F15D: -3.64%
F157G: -3.08%
